Experimental data pooled from the literature.
± marks the error that the study gave.
Target: Acetylcholinesterase (ACHE, Homo sapiens, UniProt P22303)
Chain of UniProt P22303 (whole entry, looked up): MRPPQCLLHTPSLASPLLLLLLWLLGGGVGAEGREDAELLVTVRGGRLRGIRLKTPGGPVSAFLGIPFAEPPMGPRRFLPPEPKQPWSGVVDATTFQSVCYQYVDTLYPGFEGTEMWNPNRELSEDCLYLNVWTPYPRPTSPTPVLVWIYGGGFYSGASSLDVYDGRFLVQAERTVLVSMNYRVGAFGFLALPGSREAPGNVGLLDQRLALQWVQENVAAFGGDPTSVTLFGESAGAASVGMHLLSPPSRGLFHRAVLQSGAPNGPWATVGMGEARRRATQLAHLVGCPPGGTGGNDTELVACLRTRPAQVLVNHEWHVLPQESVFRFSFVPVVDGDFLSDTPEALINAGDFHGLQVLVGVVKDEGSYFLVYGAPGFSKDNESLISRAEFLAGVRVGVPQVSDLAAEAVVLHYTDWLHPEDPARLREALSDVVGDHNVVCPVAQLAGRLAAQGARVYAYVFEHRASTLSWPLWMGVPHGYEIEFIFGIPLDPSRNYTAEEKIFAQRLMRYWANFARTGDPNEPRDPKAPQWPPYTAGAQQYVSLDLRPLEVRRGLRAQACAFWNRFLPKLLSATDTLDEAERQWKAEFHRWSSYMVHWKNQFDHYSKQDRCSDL

O=C(O)CCCC(=O)O
inhibition (enzyme activity, inhibitor; 1000 µg/mL): 79.1 ± 1.42%

COc1cc2c(cc1OC)C(=O)C(=Cc1ccc(N3CCN(C)CC3)cc1)C2
Ki' (non-competitive inhibitor, secondary plot): 0.62 µM

O=C(O)/C=C/c1ccc(O)cc1
inhibition (inhibitor; 500 µg/mL): 74.1 ± 0.9%

COc1cc(C=O)ccc1OC(=O)CSc1nnc(Cn2cnc3c2c(=O)n(C)c(=O)n3C)o1
inhibition (enzyme activity, inhibitor, Ellman; 25 µM): > 75%

COc1cc2c(cc1OC)C(=O)/C(=C\c1ccc(N3CCOCC3)cc1)C2
Ki' (non-competitive inhibitor, secondary plot): 1000 µM

O=c1c(O)c(-c2cc(O)ccc2O)oc2cc(O)cc(O)c12
inhibition (enzyme activity, inhibitor; 125 µg/mL): 54.2 ± 2.28%

S=C(NCc1ccccn1)NCc1ccccn1
inhibition (enzyme activity, inhibitor; 500 µg/mL): 72.2%

O=c1ccoc2ccc(OCCCCCN3CCCCCC3)cc12
αKi (uncompetitive inhibitor, Ellman; human erythrocyte ghosts): 13.1 ± 2.5 µM

COc1cc2c(cc1OC)C(=O)/C(=C\c1ccc(N3CCCCC3)cc1)C2
Ki' (non-competitive inhibitor, secondary plot): 37 µM

Nn1c(-c2ccc(-n3nc(-c4ccccc4O)nc3-c3ccccc3O)cc2)n[nH]c1=S
enzyme inhibition (modified Ellman's method; concentration not given): inhibited

COc1cc2c(cc1OC)C(=O)C(=Cc1ccc(N3CC[N+](C)(C)CC3)cc1)C2
Ki' (non-competitive inhibitor, secondary plot): 0.29 µM

O=c1ccoc2ccc(OCCCCN3CCCC3)cc12
αKi (uncompetitive inhibitor, Ellman; human erythrocyte ghosts): 2.82 ± 0.16 µM

Cc1ccc(C(C)C)c(OC(=O)CSc2nnc(Cn3cnc4c3c(=O)n(C)c(=O)n4C)o2)c1
inhibition (enzyme activity, inhibitor, Ellman; 25 µM): 61.1%

O=C(O)/C=C/c1cc(O)cc(O)c1
inhibition (enzyme activity, inhibitor; 250 µg/mL): 65.2 ± 1.14%

O=c1ccoc2ccc(OCCCCN3CCOCC3)cc12
αKi (uncompetitive inhibitor, Ellman; human erythrocyte ghosts): 13.5 ± 4.1 µM

CCS(=O)(=O)N1CCN(CC(=O)Nc2ccc(/C=C/C(=O)c3ccc(OC)c(OC)c3)cc2)CC1
inhibition (enzyme activity, inhibitor, Ellman; 1 mM): 88.9%

Excerpt of the above:
O=C(O)CCCC(=O)O
inhibition (enzyme activity, inhibitor; 1000 µg/mL): 79.1 ± 1.42%

COc1cc2c(cc1OC)C(=O)C(=Cc1ccc(N3CCN(C)CC3)cc1)C2
Ki' (non-competitive inhibitor, secondary plot): 0.62 µM
